Results gathered from unrelated publications.
Every numbered part comes from another study and shows a few of its results, in no order. “And” joins repeats or separate records; there may be more than shown.
Sequence of UniProt P51812 (whole entry, looked up): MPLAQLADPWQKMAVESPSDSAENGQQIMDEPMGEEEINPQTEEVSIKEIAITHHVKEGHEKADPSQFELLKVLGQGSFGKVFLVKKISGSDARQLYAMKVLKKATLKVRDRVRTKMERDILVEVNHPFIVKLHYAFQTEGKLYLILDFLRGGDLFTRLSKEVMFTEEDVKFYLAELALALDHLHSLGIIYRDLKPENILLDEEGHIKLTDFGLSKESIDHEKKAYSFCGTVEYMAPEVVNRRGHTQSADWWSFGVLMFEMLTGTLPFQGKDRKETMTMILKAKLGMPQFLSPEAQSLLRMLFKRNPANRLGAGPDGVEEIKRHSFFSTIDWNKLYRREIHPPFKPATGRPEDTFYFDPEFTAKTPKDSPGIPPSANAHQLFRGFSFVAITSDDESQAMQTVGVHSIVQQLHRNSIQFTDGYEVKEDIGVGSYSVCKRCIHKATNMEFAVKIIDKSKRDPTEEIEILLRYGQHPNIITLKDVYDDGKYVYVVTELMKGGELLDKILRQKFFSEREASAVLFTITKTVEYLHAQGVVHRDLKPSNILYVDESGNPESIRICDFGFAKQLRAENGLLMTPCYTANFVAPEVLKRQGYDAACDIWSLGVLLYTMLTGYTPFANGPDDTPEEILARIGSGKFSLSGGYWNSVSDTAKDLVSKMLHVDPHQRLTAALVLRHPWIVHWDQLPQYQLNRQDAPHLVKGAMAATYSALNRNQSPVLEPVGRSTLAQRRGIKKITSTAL
Sequence of UniProt P49760 (whole entry, looked up): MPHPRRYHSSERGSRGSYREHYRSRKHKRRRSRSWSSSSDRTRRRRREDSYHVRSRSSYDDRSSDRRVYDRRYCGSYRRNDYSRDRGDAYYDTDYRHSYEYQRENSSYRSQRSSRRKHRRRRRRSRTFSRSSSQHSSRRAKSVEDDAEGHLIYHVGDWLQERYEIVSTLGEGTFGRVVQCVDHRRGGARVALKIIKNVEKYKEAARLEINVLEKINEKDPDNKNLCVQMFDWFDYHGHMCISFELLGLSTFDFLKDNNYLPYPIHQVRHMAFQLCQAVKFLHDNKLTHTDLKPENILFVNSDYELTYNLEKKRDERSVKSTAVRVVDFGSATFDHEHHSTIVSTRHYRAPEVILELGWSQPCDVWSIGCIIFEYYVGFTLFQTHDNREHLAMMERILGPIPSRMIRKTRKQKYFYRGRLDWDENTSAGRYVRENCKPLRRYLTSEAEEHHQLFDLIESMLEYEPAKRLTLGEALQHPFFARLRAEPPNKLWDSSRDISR
Sequence of UniProt Q05513 (whole entry, looked up): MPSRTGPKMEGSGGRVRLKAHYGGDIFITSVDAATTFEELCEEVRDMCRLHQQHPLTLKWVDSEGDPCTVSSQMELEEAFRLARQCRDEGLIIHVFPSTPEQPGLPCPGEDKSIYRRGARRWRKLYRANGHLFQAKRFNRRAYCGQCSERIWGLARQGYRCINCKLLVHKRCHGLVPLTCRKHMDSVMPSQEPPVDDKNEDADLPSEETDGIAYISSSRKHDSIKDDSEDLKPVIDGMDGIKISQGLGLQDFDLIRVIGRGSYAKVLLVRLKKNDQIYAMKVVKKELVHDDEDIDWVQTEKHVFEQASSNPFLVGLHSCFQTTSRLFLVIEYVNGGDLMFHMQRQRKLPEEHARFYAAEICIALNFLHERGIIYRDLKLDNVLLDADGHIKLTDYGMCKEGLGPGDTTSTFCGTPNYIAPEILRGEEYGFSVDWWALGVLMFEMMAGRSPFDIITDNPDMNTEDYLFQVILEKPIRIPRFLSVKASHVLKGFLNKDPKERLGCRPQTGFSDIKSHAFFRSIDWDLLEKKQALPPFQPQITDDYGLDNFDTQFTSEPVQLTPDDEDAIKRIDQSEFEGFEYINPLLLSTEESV
Sequence of UniProt P42680 (whole entry, looked up): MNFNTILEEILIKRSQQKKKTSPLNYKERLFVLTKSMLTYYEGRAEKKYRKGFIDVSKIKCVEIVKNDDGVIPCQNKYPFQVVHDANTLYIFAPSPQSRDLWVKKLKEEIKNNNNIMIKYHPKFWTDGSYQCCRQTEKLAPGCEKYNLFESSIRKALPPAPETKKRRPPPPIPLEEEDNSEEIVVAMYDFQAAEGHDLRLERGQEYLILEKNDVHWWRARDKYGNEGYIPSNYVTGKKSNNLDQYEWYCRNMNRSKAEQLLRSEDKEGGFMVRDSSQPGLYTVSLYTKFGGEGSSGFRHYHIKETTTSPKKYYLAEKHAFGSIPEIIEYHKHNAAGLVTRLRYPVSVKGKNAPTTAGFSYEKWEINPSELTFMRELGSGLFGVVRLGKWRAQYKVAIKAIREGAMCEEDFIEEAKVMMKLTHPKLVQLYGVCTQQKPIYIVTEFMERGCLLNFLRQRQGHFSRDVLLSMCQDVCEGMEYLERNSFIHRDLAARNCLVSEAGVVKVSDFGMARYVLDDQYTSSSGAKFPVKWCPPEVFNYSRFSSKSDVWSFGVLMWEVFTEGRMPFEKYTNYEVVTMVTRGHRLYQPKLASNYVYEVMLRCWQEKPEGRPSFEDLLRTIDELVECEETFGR

Study 1
Target: DNA polymerase theta, ATPase domain (POLQ, Homo sapiens, UniProt O75417)
Sequence of UniProt O75417 (whole entry, unmodified, looked up): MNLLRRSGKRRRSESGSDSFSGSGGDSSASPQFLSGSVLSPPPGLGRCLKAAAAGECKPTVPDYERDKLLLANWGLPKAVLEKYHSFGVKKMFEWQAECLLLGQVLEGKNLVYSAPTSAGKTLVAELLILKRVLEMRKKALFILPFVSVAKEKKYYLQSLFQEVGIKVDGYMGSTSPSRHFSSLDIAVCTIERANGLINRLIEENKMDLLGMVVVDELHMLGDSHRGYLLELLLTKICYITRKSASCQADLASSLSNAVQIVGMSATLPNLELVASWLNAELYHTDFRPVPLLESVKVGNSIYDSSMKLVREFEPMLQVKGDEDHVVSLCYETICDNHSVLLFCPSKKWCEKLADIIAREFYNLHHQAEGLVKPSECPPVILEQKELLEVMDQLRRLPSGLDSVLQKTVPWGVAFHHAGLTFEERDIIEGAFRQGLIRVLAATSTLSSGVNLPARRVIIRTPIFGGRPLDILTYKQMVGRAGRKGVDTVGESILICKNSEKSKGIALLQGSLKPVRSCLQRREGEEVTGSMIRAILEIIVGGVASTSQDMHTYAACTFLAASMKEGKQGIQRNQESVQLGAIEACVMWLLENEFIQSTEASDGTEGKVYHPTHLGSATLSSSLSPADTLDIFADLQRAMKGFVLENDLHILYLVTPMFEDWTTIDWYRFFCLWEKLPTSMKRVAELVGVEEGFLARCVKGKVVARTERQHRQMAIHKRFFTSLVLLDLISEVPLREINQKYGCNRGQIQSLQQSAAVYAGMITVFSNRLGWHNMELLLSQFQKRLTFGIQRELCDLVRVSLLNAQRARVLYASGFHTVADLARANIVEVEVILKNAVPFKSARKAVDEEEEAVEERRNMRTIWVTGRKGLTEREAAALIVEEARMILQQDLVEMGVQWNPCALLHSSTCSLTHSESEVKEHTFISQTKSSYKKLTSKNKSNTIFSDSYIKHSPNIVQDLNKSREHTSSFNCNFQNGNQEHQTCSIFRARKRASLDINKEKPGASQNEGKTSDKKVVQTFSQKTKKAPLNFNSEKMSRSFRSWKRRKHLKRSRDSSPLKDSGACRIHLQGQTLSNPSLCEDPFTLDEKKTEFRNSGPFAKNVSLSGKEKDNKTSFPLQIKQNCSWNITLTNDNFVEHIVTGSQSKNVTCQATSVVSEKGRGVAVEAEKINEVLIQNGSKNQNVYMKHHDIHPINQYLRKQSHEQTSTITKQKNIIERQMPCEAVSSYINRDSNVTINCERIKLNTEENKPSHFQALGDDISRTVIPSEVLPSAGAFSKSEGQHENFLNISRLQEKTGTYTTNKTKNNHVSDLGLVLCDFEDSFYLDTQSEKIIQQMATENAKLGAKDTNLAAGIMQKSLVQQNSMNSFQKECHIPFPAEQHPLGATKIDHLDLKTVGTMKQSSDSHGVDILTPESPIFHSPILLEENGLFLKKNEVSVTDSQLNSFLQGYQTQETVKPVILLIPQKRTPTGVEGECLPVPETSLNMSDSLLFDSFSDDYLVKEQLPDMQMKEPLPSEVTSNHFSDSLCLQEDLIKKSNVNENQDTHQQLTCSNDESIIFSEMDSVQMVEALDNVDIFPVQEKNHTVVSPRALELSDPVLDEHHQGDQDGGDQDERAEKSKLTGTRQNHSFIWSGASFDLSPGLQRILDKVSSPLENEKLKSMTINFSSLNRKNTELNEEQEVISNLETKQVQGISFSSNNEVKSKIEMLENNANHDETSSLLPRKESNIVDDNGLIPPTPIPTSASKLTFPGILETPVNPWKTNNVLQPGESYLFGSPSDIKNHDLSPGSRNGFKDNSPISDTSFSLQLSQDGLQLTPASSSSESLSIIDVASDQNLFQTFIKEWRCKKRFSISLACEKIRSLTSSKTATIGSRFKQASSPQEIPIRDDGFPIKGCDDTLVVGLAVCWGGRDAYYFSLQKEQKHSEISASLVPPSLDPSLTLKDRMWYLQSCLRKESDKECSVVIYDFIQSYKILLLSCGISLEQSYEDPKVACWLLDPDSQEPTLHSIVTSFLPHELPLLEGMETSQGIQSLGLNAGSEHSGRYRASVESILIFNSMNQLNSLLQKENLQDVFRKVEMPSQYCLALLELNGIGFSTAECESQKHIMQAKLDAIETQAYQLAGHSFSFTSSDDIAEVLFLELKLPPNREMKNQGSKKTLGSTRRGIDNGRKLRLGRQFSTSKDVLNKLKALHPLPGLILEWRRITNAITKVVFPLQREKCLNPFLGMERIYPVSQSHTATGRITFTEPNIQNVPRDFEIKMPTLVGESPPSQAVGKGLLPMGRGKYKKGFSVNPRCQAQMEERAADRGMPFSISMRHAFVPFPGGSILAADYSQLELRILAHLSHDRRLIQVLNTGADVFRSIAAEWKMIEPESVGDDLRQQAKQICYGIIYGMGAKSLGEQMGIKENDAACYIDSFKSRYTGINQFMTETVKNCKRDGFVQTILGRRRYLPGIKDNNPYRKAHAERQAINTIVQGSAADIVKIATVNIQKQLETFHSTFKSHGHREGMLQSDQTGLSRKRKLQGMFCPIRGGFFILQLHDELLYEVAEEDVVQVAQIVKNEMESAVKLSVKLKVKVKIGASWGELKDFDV
Effect on: enzyme activity
Action: inhibitor
Tested at: 77 µM
Baseline: untreated
SMILES	remaining activity [%]
CC(C)[C@H](NC(=O)OCc1ccccc1)C(=O)N[C@H](C=O)Cc1ccccc1	93.9
COC1=C(OC)C(=O)C(CCCCCCCCCCO)=C(C)C1=O	98.8
O=C(O[C@H]1C[N+]2(CCCOc3ccccc3)CCC1CC2)C(O)(c1cccs1)c1cccs1	99.4
CC(C)C[C@H](NC(=O)[C@@H](O)[C@H](N)Cc1ccccc1)C(=O)O	101
Cc1ncc([N+](=O)[O-])n1CC(C)O (stereo not drawn)	102
CC(N)C12CC3CC(CC(C3)C1)C2 (stereo not drawn)	97.8

Study 2
Cell line: normal organoid sample H
Technique: CellTiter-Glo
Host: human
Medium: normal-adjacent epithelium
Tested at: 0.1 µM
Baseline: DMSO
SMILES	viability
CC(C)CC(=O)N1CCc2nc(-c3ccc(Br)cc3)nc(N(C)Cc3ccccc3)c2C1	150% and 141%
Cc1nc(Cc2cccc(C(F)(F)F)c2)sc1-c1ccc(C(N)=O)nc1	84.8% and 66.7%
N#Cc1ccc(Nc2ccc3[nH]c(=O)[nH]c3c2)c(Cl)c1	95.9% and 89.5%
Cc1c[nH]c2nccc(Oc3c(F)cc(Nc4cc(Cl)nc(N)n4)cc3F)c12	108% and 125%
CCOC(=O)c1cc2cc(-c3cc(C(=O)NCc4ccc(C(=O)O)cc4)nn3C)ccc2[nH]1	93.8% and 114%
Nc1cnc(N2CCc3cc(S(=O)(=O)Nc4c(F)cc(Cl)cc4F)cc(N4CCCC4=O)c32)nc1	98.5% and 89.2%
O=C(c1ccc(F)cc1)N1CC(COc2ccc(Br)cc2)(C(=O)O)C1	106% and 117%
O=C(Nc1ccc(-n2nc(-c3cccnc3)cc2C(F)(F)F)cn1)c1ccc(-c2ccccc2)c(F)c1	104%
O=C(N[C@H]1CCCCC/C=C\C2C[C@@]2(C(=O)O)NC(=O)[C@@H]2C[C@@H](Oc3ccncc3)CN2C1=O)OC1CCCC1 (stereo partly drawn)	97.1% and 95.1%
CS(=O)(=O)NCC[C@H](NC(=O)c1cncc2c1cnn2-c1ccc(F)cc1)c1ccnc(S(C)(=O)=O)c1	99.3% and 137%

Study 3
SMILES: Nc1nc(Nc2ccc(S(N)(=O)=O)cc2)nn1C(=O)c1c(F)cccc1F
Effect on: enzyme activity
Action: inhibitor
Tested at: 0.5 µM
Baseline: control
target	remaining activity [%]
TEC (Homo sapiens, UniProt P42680)	122
RPS6KA3 (Homo sapiens, UniProt P51812)	38.6
EPHA2 (Homo sapiens, UniProt P29317)	80.9
MUSK (Homo sapiens, UniProt O15146)	83.1
FLT1 (Homo sapiens, UniProt P17948)	90.7
CLK2 (Homo sapiens, UniProt P49760)	71.5
SIK2 (Homo sapiens, UniProt Q9H0K1)	84.1
PRKCZ (Homo sapiens, UniProt Q05513)	99.9
CSNK1D (Homo sapiens, UniProt P48730)	94.5
IGF1R (Homo sapiens, UniProt P08069)	86.9
CAMK1 (Homo sapiens, UniProt Q14012)	90.4
PAK1 (Homo sapiens, UniProt Q13153)	89.5
SGK2 (Homo sapiens, UniProt Q9HBY8)	106
TYRO3 (Homo sapiens, UniProt Q06418)	98.6
Cyclin-dependent kinase 2, with cyclin E (CDK2, Homo sapiens, UniProt P24941)	7.15
JAK1 (Homo sapiens, UniProt P23458)	5.19
MAP3K20 (Homo sapiens, UniProt Q9NYL2)	100

Study 4
Cell line: HaCaT
Tested at: 100 µM
Time: 18 h
SMILES	viability [%]
N[C@@H](Cc1ccc(O)c(O)c1)C(=O)O	125
COc1cc(NC(C)CCCN)c2ncccc2c1 (stereo not drawn)	15
CN(C)CCCN1c2ccccc2Sc2ccccc21	33.7
Cc1cc(=O)[nH]c(=S)[nH]1	110
COC(=O)C1=C(C)NC(C)=C(C(=O)OCC(C)C)C1c1ccccc1[N+](=O)[O-] (stereo not drawn)	27.3
NCCCNCCSP(=O)(O)O	112
O=C(c1ccc(OCCN2CCCCC2)cc1)c1c(-c2ccc(O)cc2)sc2cc(O)ccc12	16.3
COc1cnc(NS(=O)(=O)c2ccc(N)cc2)nc1	110
CCC(=O)OCC(=O)[C@@]1(OC(=O)CC)[C@@H](C)C[C@H]2[C@@H]3CCC4=CC(=O)C=C[C@]4(C)[C@@]3(Cl)[C@@H](O)C[C@@]21C	70.6

Some of these lines once more (study 3):
target	remaining activity [%]
PAK1 (Homo sapiens, UniProt Q13153)	89.5
FLT1 (Homo sapiens, UniProt P17948)	90.7
TEC (Homo sapiens, UniProt P42680)	122
CLK2 (Homo sapiens, UniProt P49760)	71.5
